Results gathered from unrelated publications.
Protocols differ between the studies behind these lines. “And” joins repeats or separate records; there may be more than shown. ± gives the spread as reported.
folP: Dihydropteroate synthase (folP, Bacteria, UniProt P0AC13)
Chain of UniProt P0AC13 (whole entry, looked up): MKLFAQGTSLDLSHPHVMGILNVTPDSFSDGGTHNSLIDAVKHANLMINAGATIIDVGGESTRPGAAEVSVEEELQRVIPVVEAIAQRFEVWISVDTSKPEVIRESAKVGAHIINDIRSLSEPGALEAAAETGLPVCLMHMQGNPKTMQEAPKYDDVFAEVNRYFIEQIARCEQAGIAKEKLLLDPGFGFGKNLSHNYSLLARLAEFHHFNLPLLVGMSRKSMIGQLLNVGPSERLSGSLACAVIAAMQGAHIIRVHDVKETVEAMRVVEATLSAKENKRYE
Chain of UniProt Q9SZU7 (whole entry, unmodified, looked up): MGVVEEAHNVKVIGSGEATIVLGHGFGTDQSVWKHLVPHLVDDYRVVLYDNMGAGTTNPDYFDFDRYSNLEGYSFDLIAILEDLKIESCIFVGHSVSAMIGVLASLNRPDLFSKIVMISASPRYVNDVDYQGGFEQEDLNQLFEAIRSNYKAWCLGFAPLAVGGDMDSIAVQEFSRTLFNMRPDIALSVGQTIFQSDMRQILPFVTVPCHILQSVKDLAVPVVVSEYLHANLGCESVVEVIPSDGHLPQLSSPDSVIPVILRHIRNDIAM
Chain of UniProt Q7Z2W7 (whole entry, looked up): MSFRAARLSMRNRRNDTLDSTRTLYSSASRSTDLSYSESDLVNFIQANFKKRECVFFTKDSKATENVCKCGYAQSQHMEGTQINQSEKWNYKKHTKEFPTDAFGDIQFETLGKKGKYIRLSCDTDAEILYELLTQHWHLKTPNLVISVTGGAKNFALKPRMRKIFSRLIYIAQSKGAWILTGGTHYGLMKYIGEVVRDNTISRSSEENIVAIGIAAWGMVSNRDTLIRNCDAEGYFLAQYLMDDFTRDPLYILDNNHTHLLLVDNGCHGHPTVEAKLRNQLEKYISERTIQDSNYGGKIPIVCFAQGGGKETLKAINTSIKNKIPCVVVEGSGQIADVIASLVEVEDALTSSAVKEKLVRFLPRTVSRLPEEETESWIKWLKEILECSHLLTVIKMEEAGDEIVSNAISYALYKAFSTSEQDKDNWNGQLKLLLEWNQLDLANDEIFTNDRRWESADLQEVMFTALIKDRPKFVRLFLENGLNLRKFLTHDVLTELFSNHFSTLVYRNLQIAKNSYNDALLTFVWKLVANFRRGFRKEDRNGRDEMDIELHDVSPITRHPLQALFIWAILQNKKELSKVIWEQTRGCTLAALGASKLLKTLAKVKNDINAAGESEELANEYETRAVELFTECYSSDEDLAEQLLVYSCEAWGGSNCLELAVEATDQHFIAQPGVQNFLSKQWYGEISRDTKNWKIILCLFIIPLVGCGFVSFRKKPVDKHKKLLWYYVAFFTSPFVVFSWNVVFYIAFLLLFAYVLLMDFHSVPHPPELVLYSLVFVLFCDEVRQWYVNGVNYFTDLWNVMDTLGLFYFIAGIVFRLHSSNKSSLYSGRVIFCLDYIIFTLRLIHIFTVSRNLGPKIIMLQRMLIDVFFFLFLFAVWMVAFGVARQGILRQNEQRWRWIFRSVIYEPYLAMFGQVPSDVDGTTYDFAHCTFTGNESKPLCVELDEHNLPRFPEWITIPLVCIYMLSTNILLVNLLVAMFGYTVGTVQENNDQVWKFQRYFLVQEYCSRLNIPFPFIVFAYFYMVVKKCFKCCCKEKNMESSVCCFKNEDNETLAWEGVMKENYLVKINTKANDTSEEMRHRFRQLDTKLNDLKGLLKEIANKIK
Chain of UniProt P35222 (141-305, looked up): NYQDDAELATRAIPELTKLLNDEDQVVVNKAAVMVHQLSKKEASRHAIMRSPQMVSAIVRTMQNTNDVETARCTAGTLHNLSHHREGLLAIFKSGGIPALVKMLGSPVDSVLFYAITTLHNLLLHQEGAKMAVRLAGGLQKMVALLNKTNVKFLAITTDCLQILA
Chain of UniProt P69687 (whole entry, looked up): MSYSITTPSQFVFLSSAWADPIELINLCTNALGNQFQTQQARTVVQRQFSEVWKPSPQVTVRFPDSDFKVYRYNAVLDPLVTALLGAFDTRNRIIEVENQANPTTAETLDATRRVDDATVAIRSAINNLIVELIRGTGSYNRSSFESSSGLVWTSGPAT
Chain of UniProt O94900 (whole entry, looked up): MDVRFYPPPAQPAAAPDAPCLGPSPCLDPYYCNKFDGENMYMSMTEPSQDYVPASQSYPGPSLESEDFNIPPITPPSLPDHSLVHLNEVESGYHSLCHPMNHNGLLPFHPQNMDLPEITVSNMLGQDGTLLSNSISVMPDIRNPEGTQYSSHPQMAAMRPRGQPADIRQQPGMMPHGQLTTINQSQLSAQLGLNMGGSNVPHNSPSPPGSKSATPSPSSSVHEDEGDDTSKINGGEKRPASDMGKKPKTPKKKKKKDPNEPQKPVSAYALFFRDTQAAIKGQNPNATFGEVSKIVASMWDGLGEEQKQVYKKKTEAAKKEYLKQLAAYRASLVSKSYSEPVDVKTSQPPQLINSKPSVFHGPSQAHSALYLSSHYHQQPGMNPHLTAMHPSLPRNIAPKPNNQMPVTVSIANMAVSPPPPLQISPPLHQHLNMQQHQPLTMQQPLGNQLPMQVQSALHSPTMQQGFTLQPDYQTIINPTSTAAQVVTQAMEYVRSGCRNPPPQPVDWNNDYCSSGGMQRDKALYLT
Chain of UniProt P39748 (whole entry, unmodified, looked up): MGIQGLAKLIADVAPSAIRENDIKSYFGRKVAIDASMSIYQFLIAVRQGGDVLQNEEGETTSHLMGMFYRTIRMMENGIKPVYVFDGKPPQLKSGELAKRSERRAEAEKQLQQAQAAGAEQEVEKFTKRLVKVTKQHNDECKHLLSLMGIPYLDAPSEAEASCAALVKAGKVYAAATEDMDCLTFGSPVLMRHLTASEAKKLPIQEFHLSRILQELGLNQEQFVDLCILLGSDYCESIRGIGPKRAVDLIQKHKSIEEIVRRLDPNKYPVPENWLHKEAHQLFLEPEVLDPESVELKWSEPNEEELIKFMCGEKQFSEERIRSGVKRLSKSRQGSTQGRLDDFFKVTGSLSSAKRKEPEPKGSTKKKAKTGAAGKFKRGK
Chain of UniProt P54941 (whole entry, looked up): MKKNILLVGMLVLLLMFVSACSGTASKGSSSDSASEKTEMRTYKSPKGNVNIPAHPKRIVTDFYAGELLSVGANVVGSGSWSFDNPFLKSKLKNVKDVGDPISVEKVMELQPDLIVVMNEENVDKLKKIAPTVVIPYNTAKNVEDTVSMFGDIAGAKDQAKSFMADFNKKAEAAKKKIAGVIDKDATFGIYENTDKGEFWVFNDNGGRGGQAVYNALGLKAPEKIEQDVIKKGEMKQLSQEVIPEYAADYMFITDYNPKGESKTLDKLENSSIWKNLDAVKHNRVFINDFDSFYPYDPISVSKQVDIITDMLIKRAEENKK
Chain of UniProt P18031 (whole entry, looked up): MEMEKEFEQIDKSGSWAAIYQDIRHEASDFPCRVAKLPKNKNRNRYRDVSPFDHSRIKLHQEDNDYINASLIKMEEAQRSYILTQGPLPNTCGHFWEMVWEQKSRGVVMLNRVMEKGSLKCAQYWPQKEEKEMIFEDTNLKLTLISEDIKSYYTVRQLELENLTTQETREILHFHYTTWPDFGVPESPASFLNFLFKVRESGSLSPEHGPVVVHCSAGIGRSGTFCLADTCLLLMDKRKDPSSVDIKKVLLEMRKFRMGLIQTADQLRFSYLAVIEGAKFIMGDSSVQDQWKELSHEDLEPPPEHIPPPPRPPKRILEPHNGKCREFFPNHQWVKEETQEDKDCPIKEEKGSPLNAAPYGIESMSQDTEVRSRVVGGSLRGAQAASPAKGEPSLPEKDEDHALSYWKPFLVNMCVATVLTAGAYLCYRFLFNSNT
Chain of UniProt P51686 (whole entry, looked up): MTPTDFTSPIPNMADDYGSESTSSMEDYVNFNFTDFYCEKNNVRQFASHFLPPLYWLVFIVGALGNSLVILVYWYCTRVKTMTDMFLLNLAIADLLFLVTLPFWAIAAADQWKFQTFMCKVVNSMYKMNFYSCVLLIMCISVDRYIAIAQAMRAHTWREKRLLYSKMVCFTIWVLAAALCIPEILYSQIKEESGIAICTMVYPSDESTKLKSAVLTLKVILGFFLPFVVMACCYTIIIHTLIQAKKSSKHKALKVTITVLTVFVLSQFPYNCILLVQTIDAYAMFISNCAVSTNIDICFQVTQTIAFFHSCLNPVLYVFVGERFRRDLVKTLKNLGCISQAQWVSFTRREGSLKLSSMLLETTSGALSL
Chain of UniProt P35218 (whole entry, looked up): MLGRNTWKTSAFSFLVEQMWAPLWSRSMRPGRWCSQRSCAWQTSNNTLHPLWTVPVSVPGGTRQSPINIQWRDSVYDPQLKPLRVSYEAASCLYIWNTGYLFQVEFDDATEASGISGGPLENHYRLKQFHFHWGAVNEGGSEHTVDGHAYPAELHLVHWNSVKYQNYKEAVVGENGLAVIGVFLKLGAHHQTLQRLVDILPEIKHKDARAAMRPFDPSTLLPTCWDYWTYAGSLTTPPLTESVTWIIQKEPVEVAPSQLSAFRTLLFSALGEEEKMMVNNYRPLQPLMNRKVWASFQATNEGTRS
Chain of UniProt Q13526 (whole entry, looked up): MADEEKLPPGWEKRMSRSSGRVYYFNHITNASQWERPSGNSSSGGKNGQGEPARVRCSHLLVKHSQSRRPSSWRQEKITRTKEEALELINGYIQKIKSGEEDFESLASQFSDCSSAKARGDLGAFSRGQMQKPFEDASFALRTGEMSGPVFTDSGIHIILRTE

`N#Cc1c(N)nc2c(c1-c1ccc(CO)o1)Cc1cc(O)ccc1-2` gave a Kd of 1050 nM (Thymocyte selection-associated high mobility group box protein TOX (Homo sapiens, UniProt O94900); binding, ITC).
For `C=CC(=O)N1CC2(CCN(c3nc(OC4CCN(CCCOC)CC4)nc4c(OCC(F)(F)F)c(-c5c(C)ccc6[nH]ncc56)c(C5CC5)cc34)CC2)C1`, the Kd was 1150 ± 130 nM (GTPase KRas, GDP-bound (KRAS, Homo sapiens, UniProt P01116, Q61H); SPR).
For `Cn1cncc1C1=CN(c2ncnc3[nH]cnc23)CC[S+]1[O-]` (stereo not shown), the Kd was > 200000 nM (PRKACA (Homo sapiens, UniProt P17612); binding).
For `CC(=O)N[C@H](C(=O)N1CCC[C@H]1C(=O)N[C@@H](CCCNC(=N)N)C(=O)N[C@H](C(=O)N1CCC[C@H]1C(=O)N[C@H](C(N)=O)C(C)C)[C@@H](C)OP(=O)(O)O)C(C)C`, the Kd was 110000 ± 30000 nM (Peptidyl-prolyl cis-trans isomerase NIMA-interacting 1, WW domain (PIN1, Homo sapiens, UniProt Q13526); binding, competitive ELISA; pH 7.3).
For `CC1CCCN(CCCNC(=O)C2=Cc3sc4c(c3CS2)CCCC4)C1` (stereo not shown), the Kd was 1050 nM (Catenin beta-1, residues 141-305 (CTNNB1, Homo sapiens, UniProt P35222); binding, isothermal titration calorimetry; 25 °C).
`O=C(O)CCC(=O)N([O-])CCCCCNC(=O)CCC(=O)N([O-])CCCCCNC(=O)CCC(=O)N([O-])CCCCCO.[Fe+3]` has a Kd of 30 ± 5 nM (Iron(3+)-hydroxamate-binding protein YxeB (yxeB, Bacillus subtilis, UniProt P54941); binding, Trp fluorescence quenching; pH 7.4, with: yxeB 100 nM).
The Kd of `CC1CCC(C(C)C)C(NC(=O)c2ccc(-c3ccccc3)cc2)C1` (single isomer, unassigned; (-)) is reported as 110 ± 30 mol % (TRPM8 (Homo sapiens, UniProt Q7Z2W7); 19F NMR titration; LPPG micelles; 37 °C).
For `Cn1nnnc1NCc1nn(C)c2nc(N)[nH]c(=O)c2c1=O`, the Kd was 21.7 nM (folP; binding, SPR).
For `COC(=O)CCCNC(=O)c1cc(S(N)(=O)=O)c(Cl)cc1NC1CCCCC1`, the Kd was 100000 nM (CA5A (Homo sapiens, UniProt P35218); pH 7).
For `Cc1nn(C)c2nc(N)[nH]c(=O)c2c1=O`, the Kd was 4.9 nM (folP; binding, SPR).
`CN(C)c1ccc2c(-c3ccc(C(=O)NCCOCCOCCOCCn4cc(COc5cc(C(=O)c6cc(Cl)ccc6NS(=O)(=O)c6ccc(C(C)(C)C)cc6)cc[n+]5[O-])nn4)cc3C(=O)[O-])c3ccc(=[N+](C)C)cc-3oc2c1` has a Kd of 47.4 ± 4.5 nM (CCR9 (Homo sapiens, UniProt P51686); binder, NanoBRET; HEK293T).
`O=c1ccn([C@@H]2O[C@H](COP(=O)(O)OP(=O)(O)O)[C@@H](O)[C@H]2O)c(=O)[nH]1` has a Kd of ~100000 nM (O-GlcNAc transferase (Xanthomonas campestris pv. campestris, UniProt Q8PC69); binding, surface plasmon resonance).
`CCCCSC(SCCCC)c1ccc(OCCNS(=O)(=O)c2ccc(F)cc2)c(OC)c1` gave a Kd of 9700 nM (CP (Tobacco mosaic virus, UniProt P69687); binding, MST).
With `Cc1c[nH]c2nccc(-c3ccc(C(=O)N[C@@H]4c5c(F)cc(C(F)F)cc5C[C@@H]4O)cn3)c12` the Kd was 6.3 nM (PRKACB (Homo sapiens, UniProt P22694); binding, competition with immobilised ligand).
With `Cn1c(=O)n(C2CCC(=O)NC2=O)c2ccc(C3CCN(CC(=O)Nc4cccc(CS(=O)(=O)N5CC[C@H](Nc6cccc(-c7sc(C(=O)O)c(OCC(=O)O)c7Cl)c6)CC5(C)C)c4)CC3)cc21` (stereo partly shown) the Kd was 34 nM (PTPN1 (Homo sapiens, UniProt P18031); binding, BLI).
`CCOC(=O)Cc1n[nH]c2nc(N)[nH]c(=O)c2c1=O` gave a Kd of 32.1 nM (folP; binding, SPR).
`O=c1[nH]c2ccccc2c(=O)n1O` has a Kd of 1580 nM (Flap endonuclease 1 (Homo sapiens, UniProt P39748); ITC; pH 7.5, 25 °C, with: 8 mM Mg2+).
The Kd of `COc1ccc2[nH]cc(CCNC(=O)c3nnc(-c4cccc(Br)c4)o3)c2c1` is reported as 1330 nM (VSIR (Homo sapiens, UniProt Q9H7M9); binding, MST).
With `CCc1nc2cc3ccccc3cc2cc1C(=O)N1CCC[C@H]1C(=O)N[C@@H](C/C=C/C[C@H](NC(=O)[C@@H]1CCCN1C(=O)c1cc2cc3ccccc3cc2nc1CC)C(=O)N[C@@H](CCCCN)C(=O)NCCCN)C(=O)N[C@@H](CCCCN)C(=O)NCCCN` the Kd was 66 nM ((CAG)10 RNA; SPR).
`Cn1nc(CCC#N)c(=O)c2c(=O)[nH]c(N)nc21` gave a Kd of 33.4 nM (folP; binding, SPR).
`CCc1nc2cc3ccccc3cc2cc1C(=O)N1CCC[C@H]1C(=O)N[C@@H](CCC/C=C/CCC[C@H](NC(=O)[C@@H]1CCCN1C(=O)c1cc2cc3ccccc3cc2nc1CC)C(=O)N[C@@H](CCCCN)C(=O)NCCCN)C(=O)N[C@@H](CCCCN)C(=O)NCCCN` gave a Kd of 846 nM ((CAG)10 RNA; SPR).
The Kd of `CC[C@H](C)[C@H](N)C1=N[C@H](C(=O)N[C@@H](CC(C)C)C(=O)N[C@H](CCC(=O)O)C(=O)N[C@H](C(=O)N[C@H]2CCCCNC(=O)[C@H](CC(N)=O)NC(=O)[C@@H](CC(=O)O)NC(=O)[C@H](Cc3c[nH]cn3)NC(=O)[C@@H](Cc3ccccc3)NC(=O)[C@H]([C@@H](C)CC)NC(=O)[C@@H](CCCN)NC2=O)[C@@H](C)CC)CS1` is reported as 25.5 ± 7.01 nM (undecaprenyl pyrophosphate; binding, isothermal titration calorimetry; phosphatidylcholine lipid vesicles; pH 7.5, 25 °C, 0.3 mM zinc sulfate).
`COC(=O)CC(C)c1nn(C)c2nc(N)[nH]c(=O)c2c1=O` (stereo not shown) has a Kd of 188 nM (folP; binding, SPR).
With `Cc1sc2c(c1C)C(c1ccc(Cl)cc1)=N[C@@H](CC(=O)NCCCCCCCNC(=O)c1ccc3c(c1)C(=O)OC31c3ccc(O)cc3Oc3cc(O)ccc31)c1nnc(C)n1-2` the Kd was 120 nM (uncharacterized protein (Spodoptera frugiperda, UniProt A0A9R0EEM2); surface plasmon resonance; binary complex).
`Cc1cccc2c1N(C(=O)n1ccnn1)CC2` has a Kd of 13900 nM and 8330 nM and 11200 nM and 10200 nM (KAI2 (Arabidopsis thaliana, UniProt Q9SZU7, F134A); binding, isothermal titration calorimetry; F134A mutant).
